Results gathered from unrelated publications.
Numbered parts are unrelated; each lists some results of a single study. “And” joins repeats or separate records; there may be more than shown.
UniProt P13945, sequence (whole entry, looked up): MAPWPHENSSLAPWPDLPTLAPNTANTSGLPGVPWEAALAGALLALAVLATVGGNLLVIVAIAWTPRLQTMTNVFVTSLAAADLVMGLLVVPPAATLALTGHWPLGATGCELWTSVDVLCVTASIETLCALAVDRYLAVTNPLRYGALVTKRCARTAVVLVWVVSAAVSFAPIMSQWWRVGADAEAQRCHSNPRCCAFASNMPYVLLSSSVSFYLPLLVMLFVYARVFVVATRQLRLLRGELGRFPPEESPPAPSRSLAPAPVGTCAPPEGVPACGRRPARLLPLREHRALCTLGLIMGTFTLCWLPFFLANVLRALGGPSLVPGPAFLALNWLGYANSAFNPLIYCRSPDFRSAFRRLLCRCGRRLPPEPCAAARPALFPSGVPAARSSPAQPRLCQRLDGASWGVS

Block 1
Target: Beta-1 adrenergic receptor (ADRB1, Homo sapiens, UniProt P08588)
UniProt P08588, sequence (whole entry, looked up): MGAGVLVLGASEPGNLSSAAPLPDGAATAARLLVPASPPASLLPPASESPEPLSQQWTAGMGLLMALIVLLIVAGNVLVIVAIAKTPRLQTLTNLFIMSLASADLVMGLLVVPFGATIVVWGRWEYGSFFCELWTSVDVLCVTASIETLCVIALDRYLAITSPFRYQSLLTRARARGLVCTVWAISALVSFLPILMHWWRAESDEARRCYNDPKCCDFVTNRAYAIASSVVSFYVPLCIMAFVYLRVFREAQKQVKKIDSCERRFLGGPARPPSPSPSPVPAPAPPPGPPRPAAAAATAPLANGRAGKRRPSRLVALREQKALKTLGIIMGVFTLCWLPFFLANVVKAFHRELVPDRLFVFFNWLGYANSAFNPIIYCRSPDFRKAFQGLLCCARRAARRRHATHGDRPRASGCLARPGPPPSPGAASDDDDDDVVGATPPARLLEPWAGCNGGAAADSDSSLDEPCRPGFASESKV
Mode: antagonist
The IC50 of `CC#CCn1cc2c3c(cccc31)[C@H](CC(C)C)N[C@H](C(=O)NCCNC(C)=O)C2` is reported as ≥ 100 µM.
`O=C1COCC2(CN(c3cnccn3)C2)CN1c1cccnc1` has an IC50 of ≥ 100 µM.
With `COc1cccc2ccc(-c3nccn3CC3(CO)CCOCC3)nc12` the IC50 was ≥ 100 µM.
`c1ccc(-c2cccc(-n3ccnc3-c3cc4n(n3)CCCNC4)c2)nc1` has an IC50 of ≥ 100 µM.
The IC50 of `COc1ccccc1N1CCN(CC[C@@H]2CC[C@H](O)[C@@H](C(=O)Nc3ccccc3)O2)CC1` is reported as ≥ 100 µM.
`O=C(c1cc(-c2ccc(F)cc2)nc2ccccc12)N1CCCC1c1nc(C2CCOCC2)no1` (stereo not shown) has an IC50 of ≥ 100 µM.

Block 2
Structure (SMILES): CC(C)n1cnc(-c2ccc(F)cc2)c1-c1ncc(C(=O)Nc2ccc(N3CCN(C)CC3)cc2)[nH]1
For Phase 2a trial, measured: haemoptysis; human, idiopathic pulmonary fibrosis; 30 mg once daily, grade 4: “patients with adverse event” read 0%.
For Phase 2a trial, measured: hyperuricaemia; human, idiopathic pulmonary fibrosis; 60 mg once daily, grade 3: “patients with adverse event” read 0%.
For Phase 2a trial, measured: respiratory, thoracic, mediastinal disorders; human, idiopathic pulmonary fibrosis; 60 mg once daily, grade 4: “patients with adverse event” read 0%.
Phase 2a trial, measured: blood urea increased; human, idiopathic pulmonary fibrosis; 60 mg once daily, grade 5 — “patients with adverse event”: 0%.
The “patients with adverse event” was 0% (Phase 2a trial, measured: hypercholesterolaemia; human, idiopathic pulmonary fibrosis; 60 mg once daily, grade 5).
It gave 0% for “patients with adverse event” (Phase 2a trial, measured: blood lactate dehydrogenase increased; human, idiopathic pulmonary fibrosis; 60 mg once daily, grade 5).
Phase 2a trial, measured: blood creatinine increased; human, idiopathic pulmonary fibrosis; 60 mg once daily, grade 5 — “patients with adverse event”: 0%.
The “patients with adverse event” was 0% (measured: abnormal liver function test, grade 2; idiopathic pulmonary fibrosis patients; oral, 60 mg once daily).
Phase 2a trial, measured: blood glucose increased; human, idiopathic pulmonary fibrosis; 60 mg once daily, grade 4 — “patients with adverse event”: 0%.
measured: any adverse event, grade 4; idiopathic pulmonary fibrosis patients; dose not given, all compound arms pooled — “patients with adverse event”: 0%.
measured: prostatic calcification, maximum grade 1; idiopathic pulmonary fibrosis patients; oral, 60 mg once daily — “patients with adverse event”: 0%.
It gave 0% for “patients with adverse event” (measured: abnormal liver function test, grade 5; idiopathic pulmonary fibrosis patients; oral, 60 mg once daily).
measured: periorbital oedema, grade 5; idiopathic pulmonary fibrosis patients; oral, 60 mg once daily — “patients with adverse event”: 0%.
measured: abnormal liver function test, grade 2; idiopathic pulmonary fibrosis patients; oral, 30 mg once daily — “patients with adverse event”: 0%.
Phase 2a trial, measured: hypoalbuminaemia; human, idiopathic pulmonary fibrosis; all compound arms total, grade 2 — “patients with adverse event”: 0%.
It gave 0% for “patients with adverse event” (Phase 2a trial, measured: blood pressure increased; human, idiopathic pulmonary fibrosis; 60 mg once daily, grade 4).
Phase 2a trial, measured: hypocalcaemia; human, idiopathic pulmonary fibrosis; 30 mg once daily, grade 4 — “patients with adverse event”: 0%.
For Phase 2a trial, measured: hepatic steatosis; human, idiopathic pulmonary fibrosis; 60 mg once daily, grade 3: “patients with adverse event” read 0%.

Block 3
Cell line: mouse MPNST tumor cells
Method: high-content immunofluorescence imaging
Measured: nuclear SOX9
Concentration: 10 µM
Time: 12 h
Notes: mean of 2 replicates
Relative to: DMSO control
Reading: higher = more nuclear SOX9
For `O=C(CC1CC(c2ccc(F)cc2F)=NO1)N1CCOCC1` (stereo not shown), “nuclear SOX9 intensity” read 103 % of DMSO.
`CN1CCC(=C2c3ccccc3CCc3sccc32)CC1` — result for “nuclear SOX9 intensity”: 174 % of DMSO.
`Cc1ncsc1-c1ccc(CNC(=O)[C@@H]2C[C@H](O)CN2C(=O)[C@@H](NC(=O)C2(C#N)CC2)C(C)(C)C)cc1`: “nuclear SOX9 intensity” 89.7 % of DMSO.
`CCN(c1ccccc1)c1cc(=NC)n(C)c(C)n1`: “nuclear SOX9 intensity” 92 % of DMSO.
`CC(C)Nc1cccnc1N1CCN(C(=O)c2cc3cc(NS(C)(=O)=O)ccc3[nH]2)CC1`: “nuclear SOX9 intensity” 107 % of DMSO and 97.4 % of DMSO.

Block 4
Target: Serine/threonine-protein kinase B-raf (BRAF, Homo sapiens, UniProt P15056)
UniProt P15056, sequence (whole entry, looked up): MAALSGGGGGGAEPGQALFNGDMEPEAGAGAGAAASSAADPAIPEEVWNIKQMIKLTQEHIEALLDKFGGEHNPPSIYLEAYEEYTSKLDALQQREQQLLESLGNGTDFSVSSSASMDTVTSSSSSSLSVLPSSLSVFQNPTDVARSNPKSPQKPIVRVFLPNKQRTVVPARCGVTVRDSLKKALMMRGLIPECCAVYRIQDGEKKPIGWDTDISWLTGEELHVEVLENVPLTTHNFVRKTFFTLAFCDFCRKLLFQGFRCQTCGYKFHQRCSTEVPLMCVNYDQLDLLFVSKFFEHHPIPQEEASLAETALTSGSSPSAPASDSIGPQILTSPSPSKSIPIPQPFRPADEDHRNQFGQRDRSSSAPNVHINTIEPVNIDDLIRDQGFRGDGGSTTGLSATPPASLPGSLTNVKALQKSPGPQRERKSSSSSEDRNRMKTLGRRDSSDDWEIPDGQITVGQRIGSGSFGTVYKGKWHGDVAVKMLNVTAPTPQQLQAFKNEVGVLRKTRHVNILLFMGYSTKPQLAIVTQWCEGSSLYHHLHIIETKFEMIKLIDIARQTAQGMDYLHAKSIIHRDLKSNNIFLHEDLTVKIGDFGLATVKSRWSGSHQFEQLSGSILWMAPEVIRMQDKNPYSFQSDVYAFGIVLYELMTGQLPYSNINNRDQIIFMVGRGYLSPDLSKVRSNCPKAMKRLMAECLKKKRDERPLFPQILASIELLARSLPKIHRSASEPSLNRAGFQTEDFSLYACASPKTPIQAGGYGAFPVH
Observed: enzyme activity
Mode: inhibitor
Concentration: 0.5 µM
Relative to: control
With `Nc1nccc(-c2c(-c3ccc(F)cc3)ncn2C2CCNCC2)n1` the remaining activity was 103%.
`O=S(=O)(NCCNC/C=C/c1ccc(Br)cc1)c1cccc2cnccc12` gave a remaining activity of 99.8%.
The remaining activity of `CSc1nc(-c2ccnc(N[C@@H](C)c3ccccc3)c2)c(-c2ccc(F)cc2)[nH]1` (racemic) is reported as 91.8%.
For `CCc1[nH]c(-c2ccc(OC)cc2)nc1-c1ccncc1`, the remaining activity was 102%.
For `N#CC(=C(N)Sc1ccc(N)cc1)c1ccccc1C(F)(F)F`, the remaining activity was 95%.
For `Cc1ccc(NC2=CC(=O)c3sc(C)nc3C2=O)cc1`, the remaining activity was 96.7%.

Other studies, line by line
Concentration: 10 µM
For `O=C(NNS(=O)(=O)c1ccccc1F)c1cc(F)cc(-c2ccccn2)c1`, the inhibition was 16.3% (Beta-3 adrenergic receptor (ADRB3, Homo sapiens, UniProt P13945); cell-free assay).
Under “total cell count”, `Cn1cncc1[C@@](O)(COc1ccc(C#N)cc1-c1ccc(OC(F)(F)F)cc1)c1ccc(C#N)cc1` is recorded as 778 and 714 (HEK293T; high-content imaging; 12 h).

Some of these lines once more (other studies, line by line):
For `O=C(NNS(=O)(=O)c1ccccc1F)c1cc(F)cc(-c2ccccn2)c1`, the inhibition was 16.3% (Beta-3 adrenergic receptor (ADRB3, Homo sapiens, UniProt P13945); cell-free assay).
Under “total cell count”, `Cn1cncc1[C@@](O)(COc1ccc(C#N)cc1-c1ccc(OC(F)(F)F)cc1)c1ccc(C#N)cc1` is recorded as 778 and 714 (HEK293T; high-content imaging; 12 h).
